Experimental data of several laboratories.
Parts stem from different laboratories: compare values within a part only.

Study 1 — technique: protein-binding microarray; form: hairpin DNA; matrix: in vitro; tested at: not given; baseline: not given; reading: higher = stronger binding; shared flanks, not repeated: GAGGCC … GGCCTCACACTCTTTCCCTACACG
Target: Signal transducer and activator of transcription 1-alpha/beta, full length (STAT1, Homo sapiens, UniProt P42224, residues 1-750)
Sequence of UniProt P42224 (whole entry, looked up): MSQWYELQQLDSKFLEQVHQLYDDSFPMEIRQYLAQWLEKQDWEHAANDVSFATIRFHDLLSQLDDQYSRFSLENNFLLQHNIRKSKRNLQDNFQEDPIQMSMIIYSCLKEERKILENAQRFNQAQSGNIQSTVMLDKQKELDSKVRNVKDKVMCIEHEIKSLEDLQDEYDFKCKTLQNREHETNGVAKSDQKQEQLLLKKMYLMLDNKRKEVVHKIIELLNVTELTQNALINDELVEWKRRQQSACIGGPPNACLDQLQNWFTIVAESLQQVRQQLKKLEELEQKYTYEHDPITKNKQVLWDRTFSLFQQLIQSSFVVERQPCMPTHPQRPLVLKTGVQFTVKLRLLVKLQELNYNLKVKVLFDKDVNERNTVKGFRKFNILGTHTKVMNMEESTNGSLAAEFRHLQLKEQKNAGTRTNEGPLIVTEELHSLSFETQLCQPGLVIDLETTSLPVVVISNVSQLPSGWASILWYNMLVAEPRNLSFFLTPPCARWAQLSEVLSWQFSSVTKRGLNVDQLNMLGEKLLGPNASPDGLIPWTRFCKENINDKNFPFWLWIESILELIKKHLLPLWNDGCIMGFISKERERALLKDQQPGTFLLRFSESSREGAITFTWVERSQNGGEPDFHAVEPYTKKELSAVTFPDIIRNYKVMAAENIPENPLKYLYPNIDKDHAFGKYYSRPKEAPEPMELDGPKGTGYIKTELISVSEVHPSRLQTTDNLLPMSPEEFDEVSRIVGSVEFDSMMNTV
Setting: whole hairpin DNA, median over replicate spots
`TTTCCCGGAAGCCTCCTGGCTTCCGGGAAA (5mC at 11)` has a median fluorescence of 12100 a.u.
`TTTCCCCTAAGCCTCCTGGCTTAGGGGAAA (5mC at 13)` gave a median fluorescence of 1050 a.u.
The median fluorescence of `TTTCCAGGAAGCCTCCTGGCTTCCTGGAAA (5mC at 11)` is reported as 4530 a.u.
With `CATCCCGGAAGCCTCCTGGCTTCCGGGATG (5mC at 7)` the median fluorescence was 1230 a.u.
`TTCCCCGGAAGCCTCCTGGCTTCCGGGGAA` gave a median fluorescence of 2320 a.u.
For `TTTTCCGGAAGCCTCCTGGCTTCCGGAAAA`, the median fluorescence was 1580 a.u.
For `TTTCACGGAAGCCTCCTGGCTTCCGTGAAA`, the median fluorescence was 1480 a.u.
With `TTTCCCGTAAGCCTCCTGGCTTACGGGAAA` the median fluorescence was 4770 a.u.
`CGTCCCGGAAGCCTCCTGGCTTCCGGGACG (5mC at 7 35)` gave a median fluorescence of 1170 a.u.
`TTTCCCGGAGGCCTCCTGGCCTCCGGGAAA (5mC at 27)` has a median fluorescence of 7450 a.u.
`TGTCCCGGAAGCCTCCTGGCTTCCGGGACA` gave a median fluorescence of 1490 a.u.
`TTTCCCCAAAGCCTCCTGGCTTTGGGGAAA` has a median fluorescence of 933 a.u.
For `TTTCCCCGAAGCCTCCTGGCTTCGGGGAAA (5mC at 13)`, the median fluorescence was 1150 a.u.
`TATCCCGGAAGCCTCCTGGCTTCCGGGATA` gave a median fluorescence of 1930 a.u.
`TTTCGCGGAAGCCTCCTGGCTTCCGCGAAA (5mC at 10 32)` gave a median fluorescence of 1360 a.u.
For `TTTCCCCGAAGCCTCCTGGCTTCGGGGAAA (5mC at 13 29)`, the median fluorescence was 1070 a.u.
The median fluorescence of `TTTCCCGCGAGCCTCCTGGCTCGCGGGAAA (5mC at 14)` is reported as 935 a.u.
`TTTCCCGCAAGCCTCCTGGCTTGCGGGAAA` gave a median fluorescence of 1170 a.u.
With `TTTCCCCGAAGCCTCCTGGCTTCGGGGAAA (5mC at 12)` the median fluorescence was 2190 a.u.
With `TTTCCCGGAAGCCTCCTGGCTTCCGGGAAA (5mC at 10)` the median fluorescence was 12200 a.u.
For `TTTGCCGGAAGCCTCCTGGCTTCCGGCAAA (5mC at 33)`, the median fluorescence was 1270 a.u.
`TTCGCCGGAAGCCTCCTGGCTTCCGGCGAA (5mC at 33)` gave a median fluorescence of 1220 a.u.
With `TCCCCCGGAAGCCTCCTGGCTTCCGGGGGA (5mC at 8)` the median fluorescence was 942 a.u.
`GTTCCCGGAAGCCTCCTGGCTTCCGGGAAC` has a median fluorescence of 6450 a.u.

Study 2 — technique: RNA Bind-n-Seq; form: RNA; matrix: in vitro; tested at: 200 nM; setting: whole 134-nt RNA, ends assumed; together with: 150 mM LiCl; baseline: input library; reading: higher = stronger binding; each molecule: 7-deaza-guanosine replaces G
Target: Ras GTPase-activating protein-binding protein 1, full length (G3BP1, Homo sapiens, UniProt Q13283)
Sequence of UniProt Q13283 (whole entry, looked up): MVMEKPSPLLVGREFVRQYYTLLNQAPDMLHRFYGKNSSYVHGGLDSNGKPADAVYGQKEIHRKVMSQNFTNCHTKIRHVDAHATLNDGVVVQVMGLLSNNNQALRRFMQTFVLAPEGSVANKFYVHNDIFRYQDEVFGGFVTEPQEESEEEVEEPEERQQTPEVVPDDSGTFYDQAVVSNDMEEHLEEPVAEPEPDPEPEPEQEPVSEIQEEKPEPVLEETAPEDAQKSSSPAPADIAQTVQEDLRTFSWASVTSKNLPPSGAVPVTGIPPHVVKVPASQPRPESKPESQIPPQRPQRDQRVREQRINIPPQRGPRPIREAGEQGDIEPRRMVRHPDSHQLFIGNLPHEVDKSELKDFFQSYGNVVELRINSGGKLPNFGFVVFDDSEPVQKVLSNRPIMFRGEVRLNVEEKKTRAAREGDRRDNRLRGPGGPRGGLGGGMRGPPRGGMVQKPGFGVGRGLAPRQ
`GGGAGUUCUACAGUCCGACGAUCUCAAGUCCUGUGCUACACAUCGUAUGUACCGAAUCGGAAAGGAAAAAAAGGUGGAAAGUAUUAUGUUACGCCGUUCGGAUCUGCACUUCCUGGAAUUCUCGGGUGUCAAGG` has a log2 enrichment of -0.532.
The log2 enrichment of `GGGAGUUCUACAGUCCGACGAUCCUCAAGUCCUGUGCUACACAUCGUAUGUACCGAAUCGGGGCGGCGGGGCGGGGAAAGUAUUAUGUUACGCCGUUCGGAUCUGCACUUCCAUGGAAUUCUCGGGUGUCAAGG` is reported as -0.667.
`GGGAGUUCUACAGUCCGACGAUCACCAUGCAGGUGGGCAUCUUUGGGAAGUGGGGCAAGUGGGGGAUAGGGAGGGGGGUAACACUUUGGGAACAGGUGGUCCCAGGUCGUUUCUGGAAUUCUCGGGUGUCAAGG` gave a log2 enrichment of 0.515.
`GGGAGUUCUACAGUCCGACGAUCCACAGACAACACGCACCCACACAGACACAGAGGGAAGGGGUUGGGAUGGGGACAGGGUGCACAGCACGGCGGGGUAGGACCCCAGCCCCUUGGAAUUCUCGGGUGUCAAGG` gave a log2 enrichment of -0.0316.
The log2 enrichment of `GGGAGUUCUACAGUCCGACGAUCCCUCAAGUCCUGUGCUACACAUCGUAUGUACCGAAUCGGAGGGGAGGAGGGGAAAGUAUUAUGUUACGCCGUUCGGAUCUGCACUUCCAGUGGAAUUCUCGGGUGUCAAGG` is reported as 0.245.
With `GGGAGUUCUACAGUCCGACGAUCACCAUGCAGGUGGGCAUCUUUGGGAAGUGGGGCAAGGGGGGGAUAGGGAGGGGGGUAACACUAAAGGAACAGGUGGUCCCAGGUCGUUUCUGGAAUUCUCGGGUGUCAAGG` the log2 enrichment was -0.241.
`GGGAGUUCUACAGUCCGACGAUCACCAUGCAGGUGGGCAUCUUUGGGACGUGGGGCAAGGGGGGGAUAGGGAGGGGGGUAACACUUUGGGAACAGGUGGUCCCAGGUCGUUUCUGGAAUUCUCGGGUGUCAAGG` gave a log2 enrichment of 0.24.
With `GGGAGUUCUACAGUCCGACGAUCUGGGAGGUGGAUUUUUUUUAUUUUUUUAGCUCAUUUCCAGGGGUGGGAAUUUUUUUUUAAUAUGUGUCAUGAAUAAAGUUGUUUUUGAAAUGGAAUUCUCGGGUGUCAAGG` the log2 enrichment was 0.23.
`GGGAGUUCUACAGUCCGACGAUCUUCAGUAAAAUGGCAGAAGAGAAACUGACCCACAAAAUGGAAGCUAAUAAAGAGAACCGAGAGGCACAAAUGGCUGCCAAACUGGAACGUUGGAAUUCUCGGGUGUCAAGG` gave a log2 enrichment of 0.339.
The log2 enrichment of `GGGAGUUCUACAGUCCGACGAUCUAACUUUAGAGGAGGAUCUGAUGGAUAUGGCAGUAGACGUGGAUUUGGGGAUGGCUAUAAUGGGUAUGGAGGAGGACCUGGAGGUGGCAAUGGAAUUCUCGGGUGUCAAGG` is reported as 0.198.
The log2 enrichment of `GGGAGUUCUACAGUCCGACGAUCGUCCUGUGCUACACAUCGUAUGUACCGAAUCAAACCCAAACCCCCAAAUUUUUUUAAAAAAGUAUUAUGUUACGCCGUUCGGAUCUGCACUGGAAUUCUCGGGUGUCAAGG` is reported as 1.12.

Study 3 — technique: protein binding microarray; form: double-stranded DNA, one strand shown; matrix: in vitro; tested at: not given; baseline: not given; reading: higher = stronger binding
Target: Histone acetyltransferase KAT6A, winged helix 2, GST fusion (KAT6A, Homo sapiens, UniProt Q92794, residues 85-181)
Setting: 8-mer, flanks averaged, mean of 2 arrays, mostly near background
Target sequence (chain): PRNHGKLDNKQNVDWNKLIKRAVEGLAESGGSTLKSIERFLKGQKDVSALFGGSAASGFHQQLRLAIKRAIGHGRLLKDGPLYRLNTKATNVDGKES
`AACGTTAG` has an E-score of -0.116.
`CGCTAAGC` gave an E-score of 0.143.
The E-score of `ACCCAGGG` is reported as 0.0209.
With `CACCTCGC` the E-score was 0.0389.
`ATGCTATA` gave an E-score of 0.00739.
For `GACGGTGA`, the E-score was -0.0657.
The E-score of `CCACGCAA` is reported as 0.201.
`CGGGCACC` gave an E-score of 0.177.
For `AGGAGCGA`, the E-score was 0.109.
The E-score of `GATTGCGC` is reported as 0.156.
For `CAAGTTAA`, the E-score was -0.0247.
For `ATAAGCAA`, the E-score was 0.00519.
With `ATAGGGTC` the E-score was -0.0972.
With `ATGTACTG` the E-score was -0.115.
For `ACTAATTG`, the E-score was -0.0214.
The E-score of `ATATAACC` is reported as -0.176.
`ATTAAGTA` has an E-score of -0.0689.
The E-score of `ACTAACGA` is reported as -0.0319.
The E-score of `AGAGTCCC` is reported as -0.175.
`CATATGAG` gave an E-score of -0.0435.
For `CGCTAGCG`, the E-score was 0.171.
`ACATTTAA` gave an E-score of 0.0507.

Study 4 — technique: protein-binding microarray; form: double-stranded DNA, one strand shown; matrix: in vitro; tested at: 250 nM; setting: 60-bp whole probe; together with: salmon DNA 0.4 mg/ml; baseline: random background probes; reading: higher = stronger binding; shared flanks, not repeated: GCCTAGCAC … GTCTTGATTCGCTTGACGCTGCTG
Target: Interferon regulatory factor 5, full length, phosphomimetic (IRF5, Homo sapiens, UniProt Q13568-2, residues 1-514, K96S/S451D/S453D/S456D/S462D)
For `GACGGTCTCCTACTGTTGACGTGCTAG`, the log fluorescence was 0.112 z-score.
With `GACGGACGGGGTCTCGGGACGTGCTAG` the log fluorescence was -0.562 z-score.
`TTAGGTTTCGGTTCAGGTTAGTGCTAG` has a log fluorescence of 10.7 z-score.
The log fluorescence of `GAGGGACTGGGTCTCGGGACGTGCTAG` is reported as -0.911 z-score.
`TGGGCTGTGGGTTTGAGTCTGTGCTAG` gave a log fluorescence of -0.476 z-score.
With `TTGTCTCCCCCATCTTGTTCCGTGCTA` the log fluorescence was 0.223 z-score.
`TTCGGTATCGACTATCGGTTAGTGCTA` gave a log fluorescence of 8.7 z-score.
The log fluorescence of `TTAGGTATCCCACTGCTTTAGTGCTAG` is reported as 0.135 z-score.
`GACGGTCACGGACTGGGGACGTGCTAG` gave a log fluorescence of -0.849 z-score.
For `TTAGGGCTGGACTATCGGTTAGTGCTA`, the log fluorescence was 4.89 z-score.
`TTAGAACTGGGGCATCGATTAGTGCTA` gave a log fluorescence of 0.0596 z-score.
`TTCGGTTTCCTTTCCCTTTAGTGCTAG` gave a log fluorescence of 2.95 z-score.
The log fluorescence of `CATCTTCTGGATTTTTTAGCGTGCTAG` is reported as 0.455 z-score.
`ATCCATCTCAAGTAGCCTAGCGTGCTA` has a log fluorescence of -0.0165 z-score.
The log fluorescence of `TTTGGTCTCCTTCTCCTTTAGTGCTAG` is reported as 0.396 z-score.
For `TTAGGTTTCTACACTGGGTTAGTGCTA`, the log fluorescence was 1.24 z-score.

Study 5 — technique: RNAcompete; form: RNA; matrix: in vitro; tested at: 20 nM; setting: 7-mer, probes averaged, single round; baseline: mean of 7-mers; reading: higher = stronger binding
Target: PABPC1L2, full length, GST fusion (mouse, UniProt A0ABA7IW68)
Residues (chain): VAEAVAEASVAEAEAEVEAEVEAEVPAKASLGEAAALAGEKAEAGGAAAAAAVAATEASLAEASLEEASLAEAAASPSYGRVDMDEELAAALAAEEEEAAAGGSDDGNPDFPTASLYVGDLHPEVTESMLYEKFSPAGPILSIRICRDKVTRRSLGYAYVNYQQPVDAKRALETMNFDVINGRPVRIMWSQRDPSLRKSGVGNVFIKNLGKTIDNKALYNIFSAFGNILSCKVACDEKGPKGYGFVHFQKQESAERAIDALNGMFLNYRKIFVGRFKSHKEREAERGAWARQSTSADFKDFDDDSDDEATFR
For `GGAAACC`, the 7-mer Z-score was -0.153.
With `CGUAUGA` the 7-mer Z-score was -0.161.
The 7-mer Z-score of `UCUCUGG` is reported as -0.224.
The 7-mer Z-score of `GAUGGCU` is reported as -0.079.
The 7-mer Z-score of `CCGCUCC` is reported as -0.371.
With `CGAGGUU` the 7-mer Z-score was -0.226.
`UCUGACG` gave a 7-mer Z-score of -0.349.
For `UACAUCC`, the 7-mer Z-score was -0.306.
With `UCCAUAU` the 7-mer Z-score was -0.298.
`CAGUACA` has a 7-mer Z-score of 0.131.
`GGAAACU` gave a 7-mer Z-score of -0.121.
`ACCGAGU` has a 7-mer Z-score of -0.18.
With `GCUCGGG` the 7-mer Z-score was 0.00979.
For `CGGCGUU`, the 7-mer Z-score was -0.267.
`AAUUGCG` gave a 7-mer Z-score of 0.186.
The 7-mer Z-score of `AGUGCAG` is reported as 0.0388.
With `ACGUCGU` the 7-mer Z-score was -0.329.
The 7-mer Z-score of `GGAGUCG` is reported as -0.0736.
`ACGGCAA` gave a 7-mer Z-score of 0.245.
The 7-mer Z-score of `CCAGGUU` is reported as -0.32.
`CUGCUGU` has a 7-mer Z-score of -0.311.
The 7-mer Z-score of `CUAAAUA` is reported as 1.

Repeated from above (study 5):
`AAUUGCG` gave a 7-mer Z-score of 0.186.
The 7-mer Z-score of `AGUGCAG` is reported as 0.0388.
With `ACGUCGU` the 7-mer Z-score was -0.329.
The 7-mer Z-score of `GGAGUCG` is reported as -0.0736.
`ACGGCAA` gave a 7-mer Z-score of 0.245.
The 7-mer Z-score of `CCAGGUU` is reported as -0.32.
`CUGCUGU` has a 7-mer Z-score of -0.311.
